Measured values collected from several papers.
A part holds a random share of what one study measured.

Series 1
Target: Transcriptional repressor CTCF (CTCF, Homo sapiens, UniProt P49711, residues 1-727, full length assumed)
Technique: protein-binding microarray
Form: double-stranded DNA, one strand shown
Sample: in vitro
Tested at: not given
Setting: k-mer, scored over probes, only values ≥0.25
Direction: higher = stronger binding
Endpoint: E-score
Construct (chain): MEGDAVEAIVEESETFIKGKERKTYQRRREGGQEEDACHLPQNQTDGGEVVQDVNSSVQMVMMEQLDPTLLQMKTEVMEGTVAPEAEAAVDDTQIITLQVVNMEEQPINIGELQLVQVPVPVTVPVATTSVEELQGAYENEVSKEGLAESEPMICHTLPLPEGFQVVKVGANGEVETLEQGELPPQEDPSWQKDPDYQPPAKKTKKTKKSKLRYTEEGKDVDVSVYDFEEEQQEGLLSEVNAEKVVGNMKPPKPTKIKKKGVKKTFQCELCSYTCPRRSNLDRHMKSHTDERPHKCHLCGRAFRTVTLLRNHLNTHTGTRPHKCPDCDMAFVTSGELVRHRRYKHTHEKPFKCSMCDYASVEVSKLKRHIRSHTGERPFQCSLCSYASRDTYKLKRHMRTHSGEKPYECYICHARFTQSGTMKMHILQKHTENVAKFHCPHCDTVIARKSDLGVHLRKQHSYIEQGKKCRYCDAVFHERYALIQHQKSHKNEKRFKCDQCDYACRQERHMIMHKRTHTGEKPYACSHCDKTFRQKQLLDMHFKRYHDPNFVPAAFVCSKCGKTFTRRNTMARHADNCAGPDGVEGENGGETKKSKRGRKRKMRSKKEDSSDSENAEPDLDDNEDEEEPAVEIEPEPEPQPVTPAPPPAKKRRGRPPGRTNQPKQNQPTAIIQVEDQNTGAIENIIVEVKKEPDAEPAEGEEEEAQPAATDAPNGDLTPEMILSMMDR
CGCGCATC: 0.28
ATGTATAG: 0.264
CGTATATA: 0.34
AATGCATT: 0.367
AATGAAGT: 0.263
GGTGGGGA: 0.375
GCTATATA: 0.338
TCCATAAA: 0.259
AAAAGGCC: 0.285
ATTTGTCG: 0.26
AATTATCC: 0.275
TAGCGCCA: 0.371
GGAGTAAA: 0.253
CACCAGGG: 0.252

Series 2
Target: RNA binding protein fox-1 homolog 2, RRM domain, GST-SBP tag (RBFOX2, Homo sapiens, UniProt O43251-10, residues 100-194)
Technique: RNA Bind-n-Seq
Form: RNA
Sample: in vitro
Tested at: 365 nM
Setting: natural RNA segment, single round, ends assumed
Reference: no-protein control
Direction: higher = stronger binding
Endpoint: RBNS enrichment (R)
All sequences stand within: GGGAGUUCUACAGUCCGACGAUC … UGGAAUUCUCGGGUGCCAA
GGGGAUCCCUGAGAAGAGUGUCCUUUAGAAAGCUAGGCAGAUGUGGAUUGCUGCUAGGAGAGUGACCCUUUAGUGGCAUAGUGACCUCAGACAAGAACUCCCUGGUUGAA: 1.93
UCCCUUUACCAAAAGGGUCAAUGGACCUUUCUUUGCACUGUGUGACUUAAUCAACUAUAAAAGCUUACAAUUAGUCUUCACAAUUAUGGGAUUGUUAUACUAACUGUGUG: 0.413
CAACUAAUGAUUGUUCCCCUCCUUCUCCCACCACCAAGUUCUUUGUCCUUCCAACCUCCCGGAAAGGGACAAAGGCUCAACAUACUGCAGGACUCCAAAAGGGAAGAAAA: 0.527
GCUGGGACAGUUCAGGUAGGGCAGGUGAGGGACCCCCGAGGCCCUGGAGCCUUGUCCUGGGAUGGGUUUGAAGAACUCAUCACUCAUCACUUGUUUUCUUUUGGCUUUUG: 0.809
CCCUGGAUAUCCCCUGUCUUAGUGGGUCUGCCAAGGUCUUGUCAGUCUUUUUCUGGUUUUGCUCAAGUUGAAGAAUGCGUGGAGAGUCUUCUGGUGAGACAUCCUCUGUC: 0.545
GUCCCAGGGCAGCCGAGGCCAGCCCUGCCUGGGUUGGAGAAACUGACUUUGUGCCUUAAGUCUACUCAGUGCCUGGUGAAGCCACCCUCAGCCCUUCACAGGCCUGAACC: 0.364
AAUGCAUGAAAAACAAAGGCAAAAACUAGUGGGAAAUGUGUAGAACUGUUAACUGAGAUGGCUUCGAGUCUUCCUUCUGGAAUCUGUUAAAUUUCACAAAGUCAUGAGGG: 3.15
GAGUCUAACAGACACUGAUUUCAUGUGCACUCCCCUCUGCUUACAAUGUGCAUUUUUUGGAGGUCAUUCAAAUUUUCCCUCUUCUGUGAUUGCUGUAGUUUCUUUCAUAG: 1.42
GAUCUGUUAGGAAUAAGAUUGAUAUUGUAUUGUGUGUAACCUGCACAAUGUGGAAAGCUGAUAUACCUGUGCAAAAUCUUUGCCUCUGUGCUGUCAGUGUGAUGUGCUUU: 0.454
UAGUAACAAUGCUGCAUCUAGAUUGGAGUGCUGCACAAACAAACAUAAGAGCAAAGCAAAACUGUAUCACAUAGGGUUUUUGGUCACUCACAACCUGAAUUCACCACAGC: 0.678
UUAUUUAAGUAUGGAAUAUUCAUUUUACUCAGAAUAGCUGUUUUGUGUAUAUUGGUGUAUAUUAUAUAACUCUUUGAGCCUUUAUUGGUAAAUUCUGGUAUACAUUGAAU: 0.455
AAAAAAAAAGAUCUGCUCUGUAGAAAGAAUUGUCUGCCAUUACAGGGUCAAGAAAAUGAAUGCGCCAAUAACAGUAAGAGCUGUGGAAGACACCCAUACCUGUAUAUACA: 4.22

Series 3
Target: Histone acetyltransferase KAT6A, winged helix 2, GST fusion (KAT6A, Homo sapiens, UniProt Q92794, residues 85-181)
Technique: protein binding microarray
Form: double-stranded DNA, one strand shown
Sample: in vitro
Tested at: not given
Setting: 8-mer, flanks averaged, mean of 2 arrays, mostly near background
Reference: not given
Direction: higher = stronger binding
Endpoint: E-score
Residues (chain): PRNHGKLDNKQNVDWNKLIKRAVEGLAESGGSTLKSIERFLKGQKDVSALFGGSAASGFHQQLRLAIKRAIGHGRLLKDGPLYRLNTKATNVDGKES
GCGGCAAA: 0.117
ATGGGAAG: -0.0301
CCGCTAGC: 0.0453
TGCGAGAA: -0.0267
AATCGAGC: -0.0319
AACTCACA: 0.0867
AGTAGTTC: -0.00283
CTTCCTCC: 0.0961
CAGTAACA: -0.0746
AGTTCAGA: 0.0556
GGGCAGCA: 0.0384
ACTCCCGA: 0.101
CGGGCGAG: 0.169
CCTTGTAC: -0.0919
CTCGGCAC: -0.0768
ATGTATCA: -0.086
AGGTACTA: -0.0518

Series 4
Target: Sal-like protein 4, full length isoform B (SALL4, Homo sapiens, UniProt Q9UJQ4-2, residues 1-616)
Technique: universal PBM
Form: double-stranded DNA, one strand shown
Sample: in vitro
Tested at: not given
Setting: 8-mer, flanks averaged, mean of replicates
Direction: higher = stronger binding
Endpoint: E-score
Target sequence (chain): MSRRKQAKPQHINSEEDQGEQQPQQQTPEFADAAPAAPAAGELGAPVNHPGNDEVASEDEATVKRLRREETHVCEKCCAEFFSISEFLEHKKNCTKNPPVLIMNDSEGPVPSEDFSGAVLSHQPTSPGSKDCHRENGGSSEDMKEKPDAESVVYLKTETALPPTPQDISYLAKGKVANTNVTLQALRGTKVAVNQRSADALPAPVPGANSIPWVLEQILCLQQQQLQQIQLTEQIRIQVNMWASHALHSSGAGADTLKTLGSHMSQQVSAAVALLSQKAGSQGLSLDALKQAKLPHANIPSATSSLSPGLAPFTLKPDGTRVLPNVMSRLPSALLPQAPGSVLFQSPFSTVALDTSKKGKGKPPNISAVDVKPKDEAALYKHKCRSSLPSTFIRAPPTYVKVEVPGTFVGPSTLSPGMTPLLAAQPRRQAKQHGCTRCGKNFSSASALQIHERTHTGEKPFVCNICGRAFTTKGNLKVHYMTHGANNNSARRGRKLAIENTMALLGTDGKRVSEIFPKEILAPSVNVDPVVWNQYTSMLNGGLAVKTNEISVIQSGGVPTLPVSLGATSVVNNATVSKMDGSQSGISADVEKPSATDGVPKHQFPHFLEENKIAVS
CGGCCGAG: -0.169
CGATGTTA: 0.106
AACTTAGC: -0.00986
AACGACAA: 0.09
ACTTCCCG: -0.106
CGGGTTCA: -0.233
CCGGAATC: -0.21
ACGATTAG: 0.125
AATTCGTC: 0.0728
CGCCCGCC: -0.331
ATGGCTGC: -0.068
GGAGACGA: -0.0663
GGCCGCAA: -0.251
ATTGGCAG: -0.122
GTGGGATA: 0.0203
GTCAGGAA: 0.0659
GCCTAGAA: 0.0308
CATGTCCC: -0.114
AATCACAA: 0.137
GGAAACTA: -0.126
AGTTAGGA: 0.0536
GCTACCGA: -0.0995

Series 5
Target: Ras GTPase-activating protein-binding protein 1, RRM domain (G3BP1, Homo sapiens, UniProt Q13283)
Sequence of UniProt Q13283 (whole entry, looked up): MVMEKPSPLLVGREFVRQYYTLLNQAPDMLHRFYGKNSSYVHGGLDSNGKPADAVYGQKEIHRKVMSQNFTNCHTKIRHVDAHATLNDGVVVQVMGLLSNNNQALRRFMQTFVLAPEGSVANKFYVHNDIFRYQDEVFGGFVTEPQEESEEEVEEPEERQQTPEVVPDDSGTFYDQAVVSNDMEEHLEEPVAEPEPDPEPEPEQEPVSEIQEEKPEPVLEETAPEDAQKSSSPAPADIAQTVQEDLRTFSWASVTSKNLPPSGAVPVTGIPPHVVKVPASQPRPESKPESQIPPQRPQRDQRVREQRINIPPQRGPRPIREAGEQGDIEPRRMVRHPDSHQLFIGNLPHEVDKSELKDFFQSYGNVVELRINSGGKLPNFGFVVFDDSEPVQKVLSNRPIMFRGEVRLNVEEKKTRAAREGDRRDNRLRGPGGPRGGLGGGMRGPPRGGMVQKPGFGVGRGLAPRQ
Technique: RNA Bind-n-Seq
Form: RNA
Sample: in vitro
Tested at: 1 µM
Setting: whole 134-nt RNA, ends assumed
With: 150 mM KCl
Reference: input library
Direction: higher = stronger binding
Endpoint: log2 enrichment
All sequences stand within: GGGAGUUCUACAGUCCGACGAUC … UGGAAUUCUCGGGUGUCAAGG
CACAAAAAACACGCACCCACACAGACACAGAGGGAAGGGGUUGGGAUGGGGACAGGGUGCACAGCAGGGCGGGGUAGGACCCCAGCCCCU: -0.229
UCCUCAAGUCCUGUGCUACACAUCGUAUGUACCGAAUCGGGCGGCGGCGGGGAAAGUAUUAUGUUACGCCGUUCGGAUCUGCACUUCCAG: 0.0251
UGUGCUACACAUCGUAUGUACCGAAUCGGGGCCCCCCCGGCCCCCCCGGGGCCCCCCCGGGGAAAGUAUUAUGUUACGCCGUUCGGAUCU: -0.586
UCAAGUCCUGUGCUACACAUCGUAUGUACCGAAUCGGGCCGGGCCGGGGCCGGGAAAGUAUUAUGUUACGCCGUUCGGAUCUGCACUUCC: -0.662
CCUCAAGUCCUGUGCUACACAUCGUAUGUACCGAAUCGGGAGGGUGGGUGGGAAAGUAUUAUGUUACGCCGUUCGGAUCUGCACUUCCAG: -0.198
GCAGGAAGUAAAAACAAAUGGAAAUGCUUCGGAUAGUGGCAGGGGUGGGGGUUGCUGAGGAAAGGGUGGGAUGGGAGUGGGUAAAGAGUU: 1.35
ACCAUGCAGGCGGGCAUCUUUGGGAAGUGGGGCAAGGGGGGGAUAGGGAGGGGGGUAACACUUUGGGAACAGGUGGUCCCAGGUCGUUUC: -0.543
UCAAGUCCUGUGCUACACAUCGUAUGUACCGAAUCGGGAAAAAGGGUGGGAGGGAAAGUAUUAUGUUACGCCGUUCGGAUCUGCACUUCC: 0.645
UCCUCAAGUCCUGUGCUACACAUCGUAUGUACCGAAUCGGGAGGAGGAGGGGAAAGUAUUAUGUUACGCCGUUCGGAUCUGCACUUCCAG: -0.285
UUAUCUGUGGACUUCACCCAAAAGGAGUGGCAGCUACUGGAUCCCUCUCAGAAGAAUUUAUACAAGGAUGUGAUGUUGGAGAACUAUAGC: -0.0405
